Measurements gathered from unrelated publications.
Protocols differ between the studies behind these lines.
Method: steady-state kinetics
B1: protein (Trypanosoma brucei, UniProt Q382C3); chain MKRSVSKVWLNEDTPNDPYPLYAPSPLPPKRPGTIRVWVDGCFDMLHFGHANALRQARSMGDELFVGCHTDEEIIRHKGPPSMRQEERYEALRACKWVDAVIEGYPYVTRVEDMKRFEVDFVVHGDDISVDLNGRNSYQAIIDAGMFKAVRRTECISTTDLVGRMLLCVPSELLSDADKKLLDSEVARKRGPHYLTTSRKIAQFSNKLAPPVGATVVYVDGAFDLFHAGHIRFLQKARALGDYLIVGIHDDQLVRESKGEHFPIMSLNERALGVLSCRYVDDVVFGAPRGVTQEMIKILDIKIVACGTSSETRNCKGAFDVYEVPKSLNLFKVVESGSDLSTDMIVERVVKNHVVLLERQFLKHMKDSEAELRKPDVYRNVREV
B2: BshA S17A (Bacillus subtilis, UniProt P42982); chain MRKLKIGITCYPSVGGAGIIATELGKQLAEKGHEIHFITSSIPFRLNTYHPNIHFHEVEVNQYAVFKYPPYDLTLASKIAEVAERENLDIIHAHYALPHAVCAYLAKQMLKRNIGIVTTLHGTDITVLGYDPSLKDLIRFAIESSDRVTAVSSALAAETYDLIKPEKKIETIYNFIDERVYLKKNTAAIKEKHGILPDEKVVIHVSNFRKVKRVQDVIRVFRNIAGKTKAKLLLVGDGPEKSTACELIRKYGLEDQVLMLGNQDRVEDLYSISDLKLLLSEKESFGLVLLEAMACGVPCIGTNIGGIPEVIKNNVSGFLVDVGDVTAATARAMSILEDEQLSNRFTKAAIEMLENEFSSKKIVSQYEQIYADLAEPE
B3: enzyme (Bacillus pumilus, UniProt A8FFI9); chain EARSIAWSVDEFFKNREGTFVIQEVKEKSPWVYNKKRAKERFAPQSTFKVANALIGLQTGAVRDEYDIKYWDGVKREIDNWNRDHTLGSGMRDSVVWYYQAMARDIGEERMNHWVKAIHYGNKDISGGIDQFWLSSTLRISPIEQVRFLKQLYEETLPFDLKNMRTVKRMMVQEEEKHATLYGKTGSGSDIGWYVGFIKHEHKTYILATNIKGTGIEAKDITYRILKKYHLMEASV
B4: FMO3 D132H (Homo sapiens, UniProt P31513); chain GKKVAIIGAGVSGLASIRSCLEEGLEPTCFEKSNDIGGLWKFSDHAEEGRASIYKSVFSNSSKEMMCFPDFPFPDDFPNFMHNSKIQEYIIAFAKEKNLLKYIQFKTFVSSVNKHPDFATTGQWDVTTERHGKKESAVFDAVMVCSGHHVYPNLPKESFPGLNHFKGKCFHSRDYKEPGVFNGKRVLVVGLGNSGCDIATELSRTAEQVMISSRSGSWVMSRVWDNGYPWDMLLVTRFGTFLKNNLPTAISDWLYVKQMNARFKHENYGLMPLNGVLRKEPVFNDELPASILCGIVSVKPNVKEFTETSAIFEDGTIFEGIDCVIFATGYSFAYPFLDESIIKSRNNEIILFKGVFPPLLEKSTIAVIGFVQSLGAAIPTVDLQSRWAAQVIKGTCTLPSMEDMMNDINEKMEKKRKWFGKSETIQTDYIVYMDELSSFIGAKPNIPWLFLTDPKLAMEVYFGPCSPYQFRLVGPGQWPGARNAILTQWDRSLKPMQTRVVGRLQKPCFFFHWLKLFAIPILLIAVFLVLT
B5: POLH (Homo sapiens, UniProt Q9Y253); chain MATGQDRVVALVDMDCFFVQVEQRQNPHLRNKPCAVVQYKSWKGGGIIAVSYEARAFGVTRSMWADDAKKLCPDLLLAQVRESRGKANLTKYREASVEVMEIMSRFAVIERASIDEAYVDLTSAVQERLQKLQGQPISADLLPSTYIEGLPQGPTTAEETVQKEGMRKQGLFQWLDSLQIDNLTSPDLQLTVGAVIVEEMRAAIERETGFQCSAGISHNKVLAKLACGLNKPNRQTLVSHGSVPQLFSQMPIRKIRSLGGKLGASVIEILGIEYMGELTQFTESQLQSHFGEKNGSWLYAMCRGIEHDPVKPRQLPKTIGCSKNFPGKTALATREQVQWWLLQLAQELEERLTKDRNDNDRVATQLVVSIRVQGDKRLSSLRRCCALTRYDAHKMSHDAFTVIKNCNTSGIQTEWSPPLTMLFLCATKFSASAPSSSTDITSFLSSDPSSLPKVPVTSSEAKTQGSGPAVTATKKATTSLESFFQKAAERQKVKEASLSSLTAPTQAPMSNSPSKPSLPFQTSQSTGTEPFFKQKSLLLKQKQLNNSSVSSPQQNPWSNCKALPNSLPTEYPGCVPVCEGVSKLEESSKATPAEMDLAHNSQSMHASSASKSVLEVTQKATPNPSLLAAEDQVPCEKCGSLVPVWDMPEHMDYHFALELQKSFLQPHSSNPQVVSAVSHQGKRNPKSPLACTNKRPRPEGMQTLESFFKPLTH
B6: GTPBP3 A322P (Homo sapiens, UniProt Q969Y2); chain TRRSSGAPAPGSGATIFALSSGQGRCGIAVIRTSGPASGHALRILTAPRDLPLARHASLRLLSDPRSGEPLDRALVLWFPGPQSFTGEDCVEFHVHGGPAVVSGVLQALGSVPGLRPAEAGEFTRRAFANGKLNLTEVEGLADLIHAETEAQRRQALRQLDGELGHLCRGWAETLTKALAHVEAYIDFGEDDNLEEGVLEQADIEVRALQVALGAHLRDARRGQRLRSGVHVVVTGPPNAGKSSLVNLLSRKPVSIVSPEPGTTRDVLETPVDLAGFPVLLSDTAGLREGVGPVEQEGVRRPRERLEQADLILAMLDASDLASPSSCNFLATVVASVGAQSPSDSSQRLLLVLNKSDLLSPEGPGPGPDLPPHLLLSCLTGEGLDGLLEALRKELAAVCGDPSTDPPLLTRARHQHHLQGCLDALGHYKQSKDLALAAEALRVARGHLTRLTGGGGTEEILDIIFQDFCVGK
B7: MTRR A129T (Homo sapiens, UniProt Q9UBK8); chain MRRFLLLYATQQGQAKAIAEEICEQAVVHGFSADLHCISESDKYDLKTETAPLVVVVSTTGTGDPPDTARKFVKEIQNQTLPVDFFAHLRYGLLGLGDSEYTYFCNGGKIIDKRLQELGARHFYDTGHTDDCVGLELVVEPWIAGLWPALRKHFRSSRGQEEISGALPVASPASSRTDLVKSELLHIESQVELLRFDDSGRKDSEVLKQNAVNSNQSNVVIEDFESSLTRSVPPLSQASLNIPGLPPEYLQVHLQESLGQEESQVSVTSADPVFQVPISKAVQLTTNDAIKTTLLVELDISNTDFSYQPGDAFSVICPNSDSEVQSLLQRLQLEDKREHCVLLKIKADTKKKGATLPQHIPAGCSLQFIFTWCLEIRAIPKKAFLRALVDYTSDSAEKRRLQELCSKQGAADYSRFVRDACACLLDLLLAFPSCQPPLSLLLEHLPKLQPRPYSCASSSLFHPGKLHFVFNIVEFLSTATTEVLRKGVCTGWLALLVASVLQPNIHASHEDSGKALAPKISISPRTTNSFHLPDDPSIPIIMVGPGTGIAPFIGFLQHREKLQEQHPDGNFGAMWLFFGCRHKDRDYLFRKELRHFLKHGILTHLKVSFSRDAPVGEEEAPAKYVQDNIQLHGQQVARILLQENGHIYVCGDAKNMAKDVHDALVQIISKEVGVEKLEAMKTLATLKEEKRYLQDIWS
B8: ABCB10 (Homo sapiens, UniProt Q9NRK6); chain AGLPEARKLLGLAYPERRRLAAAVGFLTMSSVISMSAPFFLGKIIDVIYTNPTVDYSDNLTRLCLGLSAVFLCGAAANAIRVYLMQTSGQRIVNRLRTSLFSSILRQEVAFFDKTRTGELINRLSSDTALLGRSVTENLSDGLRAGAQASVGISMMFFVSPNLATFVLSVVPPVSIIAVIYGRYLRKLTKVTQDSLAQATQLAEERIGNVRTVRAFGKEMTEIEKYASKVDHVMQLARKEAFARAGFFGATGLSGNLIVLSVLYKGGLLMGSAHMTVGELSSFLMYAFWVGISIGGLSSFYSELMKGLGAGGRLWELLEREPKLPFNEGVILNEKSFQGALEFKNVHFAYPARPEVPIFQDFSLSIPSGSVTALVGPSGSGKSTVLSLLLRLYDPASGTISLDGHDIRQLNPVWLRSKIGTVSQEPILFSCSIAENIAYGADDPSSVTAEEIQRVAEVANAVAFIRNFPQGFNTVVGEKGVLLSGGQKQRIAIARALLKNPKILLLDEATSALDAENEYLVQEALDRLMDGRTVLVIAHRLSTIKNANMVAVLDQGKITEYGKHEELLSKPNGIYRKLMNKQSFISA
B9: ASRGL1 (Homo sapiens, UniProt Q7L266); chain 1 MNPIVVVHGGGAGPISKDRKERVHQGMVRAATVGYGILREGGSAVDAVEGAVVALEDDPEFNAGCGSVLNTNGEVEMDASIMDGKDLSAGAVSAVQCIANPIKLARLVMEKTPHCFLTDQGAAQFAAAMGVPEIPGEKLVTERNKKRLEKEKHEKGAQKTDCQKNLG; chain 2 TVGAVALDCKGNVAYATSTGGIVNKMVGRVGDSPCLGAGGYADNDIGAVSTTGHGESILKVNLARLTLFHIEQGKTVEEAADLSLGYMKSRVKGLGGLIVVSKTGDWVAKWTSTSMPWAAAKDGKLHFGIDPDDTTITDLP
Chain of UniProt P0DXY1 (whole entry, looked up): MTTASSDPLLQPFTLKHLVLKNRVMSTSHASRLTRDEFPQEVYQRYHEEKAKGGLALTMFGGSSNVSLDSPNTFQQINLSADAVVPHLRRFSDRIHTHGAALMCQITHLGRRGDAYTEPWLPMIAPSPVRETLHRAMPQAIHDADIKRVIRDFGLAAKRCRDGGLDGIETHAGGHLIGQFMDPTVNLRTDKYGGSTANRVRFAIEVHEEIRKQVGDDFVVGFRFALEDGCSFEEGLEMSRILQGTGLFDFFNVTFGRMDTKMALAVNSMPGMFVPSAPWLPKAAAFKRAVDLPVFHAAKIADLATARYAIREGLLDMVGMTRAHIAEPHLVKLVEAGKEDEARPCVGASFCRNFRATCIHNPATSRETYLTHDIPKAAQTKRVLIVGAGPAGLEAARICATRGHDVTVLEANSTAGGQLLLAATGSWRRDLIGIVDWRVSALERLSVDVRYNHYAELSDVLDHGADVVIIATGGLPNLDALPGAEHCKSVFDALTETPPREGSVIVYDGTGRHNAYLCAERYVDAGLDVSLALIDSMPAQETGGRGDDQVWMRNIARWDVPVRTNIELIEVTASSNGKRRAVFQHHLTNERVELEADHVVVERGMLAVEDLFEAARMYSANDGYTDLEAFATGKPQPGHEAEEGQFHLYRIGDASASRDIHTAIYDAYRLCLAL
Chain of UniProt P45370 (whole entry, looked up): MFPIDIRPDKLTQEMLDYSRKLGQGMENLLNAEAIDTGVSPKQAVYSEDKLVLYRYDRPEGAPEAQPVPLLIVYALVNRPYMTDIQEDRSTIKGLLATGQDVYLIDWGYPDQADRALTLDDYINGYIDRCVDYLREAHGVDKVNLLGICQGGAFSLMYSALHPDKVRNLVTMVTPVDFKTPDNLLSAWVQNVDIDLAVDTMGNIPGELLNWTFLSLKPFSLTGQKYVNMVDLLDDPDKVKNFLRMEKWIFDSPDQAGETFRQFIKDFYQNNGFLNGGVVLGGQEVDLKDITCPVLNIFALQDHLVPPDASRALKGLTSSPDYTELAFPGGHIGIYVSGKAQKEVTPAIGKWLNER
Chain of UniProt P12081 (whole entry, looked up): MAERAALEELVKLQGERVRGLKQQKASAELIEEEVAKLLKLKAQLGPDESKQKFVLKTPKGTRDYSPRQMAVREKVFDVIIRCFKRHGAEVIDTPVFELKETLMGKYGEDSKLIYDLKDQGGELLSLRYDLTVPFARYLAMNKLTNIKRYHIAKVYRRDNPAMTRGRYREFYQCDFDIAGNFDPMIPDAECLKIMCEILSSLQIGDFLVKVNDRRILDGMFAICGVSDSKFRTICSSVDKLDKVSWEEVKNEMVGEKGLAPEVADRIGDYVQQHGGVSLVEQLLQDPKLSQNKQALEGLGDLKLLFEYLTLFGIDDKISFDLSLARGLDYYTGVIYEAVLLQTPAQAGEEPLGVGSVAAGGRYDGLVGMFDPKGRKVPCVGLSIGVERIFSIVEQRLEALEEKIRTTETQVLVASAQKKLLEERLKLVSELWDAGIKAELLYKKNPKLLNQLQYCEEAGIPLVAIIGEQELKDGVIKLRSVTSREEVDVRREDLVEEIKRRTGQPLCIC
Chain of UniProt Q6ZQB6 (whole entry, looked up): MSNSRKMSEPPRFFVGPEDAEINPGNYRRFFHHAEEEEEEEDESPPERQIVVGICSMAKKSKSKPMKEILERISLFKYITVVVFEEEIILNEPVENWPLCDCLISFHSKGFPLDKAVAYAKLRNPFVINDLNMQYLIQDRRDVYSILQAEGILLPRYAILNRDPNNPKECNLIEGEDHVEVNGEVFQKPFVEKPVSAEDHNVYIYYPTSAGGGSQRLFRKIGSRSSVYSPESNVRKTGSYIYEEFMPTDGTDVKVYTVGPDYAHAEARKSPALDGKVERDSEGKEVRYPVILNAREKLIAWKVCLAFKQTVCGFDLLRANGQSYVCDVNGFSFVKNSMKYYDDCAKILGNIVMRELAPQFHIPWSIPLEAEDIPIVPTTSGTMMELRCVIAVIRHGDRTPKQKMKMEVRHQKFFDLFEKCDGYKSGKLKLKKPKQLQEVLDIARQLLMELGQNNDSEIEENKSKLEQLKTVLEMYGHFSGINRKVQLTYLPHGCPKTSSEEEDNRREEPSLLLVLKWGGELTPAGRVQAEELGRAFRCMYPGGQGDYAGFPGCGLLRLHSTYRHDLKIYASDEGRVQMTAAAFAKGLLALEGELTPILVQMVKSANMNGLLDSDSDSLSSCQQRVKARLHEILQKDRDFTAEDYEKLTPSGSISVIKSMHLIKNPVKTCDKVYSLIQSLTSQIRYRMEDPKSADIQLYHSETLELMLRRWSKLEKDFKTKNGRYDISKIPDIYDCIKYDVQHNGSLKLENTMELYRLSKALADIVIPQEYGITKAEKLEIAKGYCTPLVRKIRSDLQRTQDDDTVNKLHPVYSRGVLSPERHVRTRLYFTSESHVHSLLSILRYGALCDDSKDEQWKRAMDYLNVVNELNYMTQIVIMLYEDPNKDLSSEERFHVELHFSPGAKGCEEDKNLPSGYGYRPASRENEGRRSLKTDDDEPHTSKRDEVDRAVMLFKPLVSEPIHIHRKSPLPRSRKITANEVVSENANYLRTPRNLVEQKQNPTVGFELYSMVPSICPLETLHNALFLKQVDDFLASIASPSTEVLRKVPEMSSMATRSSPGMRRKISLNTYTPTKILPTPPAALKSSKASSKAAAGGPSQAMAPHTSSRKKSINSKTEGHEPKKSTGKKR

| Molecule | substrate | sample | pH | temperature | setting | added | Km [µM] |
| --- | --- | --- | --- | --- | --- | --- | --- |
| Ppip5k2 (Mus musculus, UniProt Q6ZQB6) | O=P(O)(O)O[C@@H]1[C@@H](OP(=O)(O)O)[C@H](OP(=O)(O)OP(=O)(O)O)[C@@H](OP(=O)(O)O)[C@H](OP(=O)(O)OP(=O)(O)O)[C@@H]1OP(=O)(O)O | – | pH 5 | 37 °C | – | – | 6.8 |
| HARS1 (Homo sapiens, UniProt P12081) | N[C@@H](Cc1c[nH]cn1)C(=O)O | – | pH 7.5 | 37 °C | KCl 150 mM | tRNA(His) | 8 |
| pyc (Rhizobium etli, UniProt Q2K340) | Nc1ncnc2c1ncn2[C@@H]1O[C@H](COP(=O)(O)OP(=O)(O)OP(=O)(O)O)[C@@H](O)[C@H]1O | – | pH 7.8 | 30 °C | no pyruvate | NaHCO3 20 mM, acetyl CoA 0.25 mM, Mg2+ 5 mM | 9 |
| B1 (protein) | Nc1ccn([C@@H]2O[C@H](COP(=O)(O)OP(=O)(O)OP(=O)(O)O)[C@@H](O)[C@H]2O)c(=O)n1 | – | pH 7.5 | – | – | ethanolamine-phosphate 0.1 mM | 12.7 |
| protein (Allochromatium vinosum, UniProt P45370) | C=CC[C@@H](O)CC(=O)SCCNC(=O)CCNC(=O)[C@H](O)C(C)(C)COP(=O)(O)OP(=O)(O)OC[C@H]1O[C@@H](n2cnc3c(N)ncnc32)[C@H](O)[C@@H]1OP(=O)(O)O | – | pH 7.8 | 30 °C | – | – | 50 |
| B2 (BshA S17A) | CC(=O)N[C@H]1[C@@H](OP(=O)(O)OP(=O)(O)OC[C@H]2O[C@@H](n3ccc(=O)[nH]c3=O)[C@H](O)[C@@H]2O)O[C@H](CO)[C@@H](O)[C@@H]1O | – | pH 7.5 | 21 °C | – | malate 0–25 mM | 600 |
| B3 (enzyme) | CCN1CCN(C(=O)N[C@@H](C(=O)N[C@@H]2C(=O)N3[C@@H]2SC(C)(C)[C@@H]3C(=O)O)c2ccccc2)C(=O)C1=O | – | pH 7 | – | – | – | 15 |
| B4 (FMO3 D132H) | CN1CCC[C@H]1c1cccnc1 | HEK293 microsomes | – | 37 °C | not purified | NADPH regenerating system | 2100 |
| B5 (POLH) | Cc1cn([C@H]2C[C@H](O)[C@@H](COP(=O)(O)OP(=O)(O)OP(=O)(O)O)O2)c(=O)[nH]c1=O | – | pH 8 | 37 °C | misinsertion opposite dT | Mg2+ | 77.8 |
| B6 (GTPBP3 A322P) | Nc1nc2c(ncn2[C@@H]2O[C@H](COP(=O)(O)OP(=O)(O)OP(=O)(O)O)[C@@H](O)[C@H]2O)c(=O)[nH]1 | – | pH 8 | 37 °C | KCl 300 mM | – | 91.3 |
| B7 (MTRR A129T) | CC1=CC(=O)c2ccccc2C1=O | – | pH 7.5 | 37 °C | substoichiometric FMN | NADPH | 7.8 |
| B8 (ABCB10) | Nc1ncnc2c1ncn2[C@@H]1O[C@H](COP(=O)(O)OP(=O)(O)OP(=O)(O)O)[C@@H](O)[C@H]1O | lipid nanodiscs | pH 7.5 | 37 °C | – | MgCl2 10 mM | 750 |
| B9 (ASRGL1) | COC(=O)C[C@H](N)C(=O)O | – | pH 7.4 | 37 °C | NaCl 100 mM | – | 400 |
| enzyme (Caballeronia cordobensis, UniProt P0DXY1) | NC(=O)C1=CN([C@@H]2O[C@H](COP(=O)(O)OP(=O)(O)OC[C@H]3O[C@@H](n4cnc5c(N)ncnc54)[C@H](O)[C@@H]3O)[C@@H](O)[C@H]2O)C=CC1 | – | pH 8 | – | apparent, not purified, cofactor varied | – | 92.8 |

For quick reference, copied from above:
| Molecule | substrate | sample | pH | temperature | setting | added | Km [µM] |
| --- | --- | --- | --- | --- | --- | --- | --- |
| B4 (FMO3 D132H) | CN1CCC[C@H]1c1cccnc1 | HEK293 microsomes | – | 37 °C | not purified | NADPH regenerating system | 2100 |
